Measurements collected from several papers.
± gives the spread as reported.
Matrix: plasma

`[2H]C([2H])([2H])NC(=O)c1ccc(N2C(=S)N(c3ccc(C#N)c(C(F)(F)F)c3)C(=O)C2(C)C)cc1F` gave an AUC(0-inf) of 716000 ± 200000 ng·h/mL (healthy male human; oral, 160 mg, fed, single dose).
With `O=C(CCc1ccc(CNC(C(=O)OC2CCCC2)C2CCCCC2)cn1)NO` (centres unmarked) the AUC(0-inf) was 189 ng·h/mL (human; oral, 50 mg single dose, geometric mean).
`Cn1c(=O)oc2ccc(-c3ccc(CC(C#N)NC(=O)C4CNCCCO4)c(F)c3)cc21` (centres unmarked) gave an AUC(0-inf) of 835 ng·h/mL (human volunteers; 15 mg single dose, fasted, geometric mean).
`O=C(CCc1ccc(CNC(C(=O)O)C2CCCCC2)cn1)NO` (centres unmarked) has an AUC(0-inf) of 438 ng·h/mL (healthy male humans; oral, 60 mg, single dose, geometric mean).
`C=CC(=O)Nc1cc(Nc2nccc(-c3cn(C4CC4)c4ccccc34)n2)c(OC)cc1N(C)CCNC` gave an AUC(0-inf) of 1120 ± 103 ng·h/mL (healthy Chinese male human; oral, 110 mg almonertinib, metabolite, [14C] single dose).
`CN[C@@H](CCOc1cccc2ccccc12)c1ccccc1` has an AUC(0-inf) of 223 ± 160 ng·h/mL (healthy male humans; oral, 60 mg of dapoxetine).
For `CC(=O)N[C@H](CC(=O)O)C(=O)N[C@H](Cc1c[nH]c2ccccc12)C(=O)N[C@H](Cc1ccccc1)C(=O)N[C@H](CCCCN)C(=O)N[C@H](C)C(=O)N[C@H](Cc1ccccc1)C(=O)N[C@H](Cc1ccc(O)cc1)C(=O)N[C@H](CC(=O)O)C(=O)N[C@H](CCCCN)C(=O)N[C@@H](C(=O)N[C@H](C)C(=O)N[C@H](CCC(=O)O)C(=O)N[C@H](CCCCN)C(=O)N[C@H](Cc1ccccc1)C(=O)N[C@H](CCCCN)C(=O)N[C@H](CCC(=O)O)C(=O)N[C@H](C)C(=O)N[C@H](Cc1ccccc1)C(N)=O)C(C)C`, the AUC(0-inf) was 111 ng·h/mL (human, statin-treated high-risk CHD, male; oral, 500 mg daily, day 13, mean, detected subjects only).
For `CN1CCC[C@]1(C)/C=C/S(=O)(=O)NC(=O)Nc1c2c(cc3c1CCC3)CCC2`, the AUC(0-inf) was 342000 ng·h/mL (human; oral, 400 mg single dose).
For `CCc1c2c(nc3ccc(O)cc13)-c1cc3c(c(=O)n1C2)COC(=O)[C@]3(O)CC`, the AUC(0-inf) was 1720 ng·h/mL (human patients; intravenous, 133 mg/m^2 of parent drug).
`CC[C@H](C)[C@H](NC(=O)[C@H](CC(C)C)NC(=O)[C@H](Cc1c[nH]c2ccccc12)NC(=O)[C@H](C)NC(=O)[C@@H](NC(=O)[C@H](Cc1ccccc1)NC(=O)[C@H](CC(=O)O)NC(=O)[C@H](CCCNC(=N)N)NC(=O)[C@H](C)NC(=O)[C@H](C)NC(=O)[C@H](CC(C)C)NC(=O)[C@H](C)NC(=O)[C@H](CC(=O)O)NC(=O)[C@H](CC(C)C)NC(=O)[C@@H](NC(=O)[C@@H](NC(=O)[C@H](C)NC(=O)[C@H](CC(C)C)NC(=O)[C@H](CCC(=O)O)NC(=O)[C@H](CO)NC(=O)[C@H](CO)NC(=O)[C@H](Cc1ccccc1)NC(=O)[C@@H](NC(=O)CNC(=O)[C@H](CCC(=O)O)NC(=O)CNC(=O)[C@@H](N)Cc1cnc[nH]1)[C@@H](C)O)[C@@H](C)O)[C@@H](C)CC)[C@@H](C)CC)C(=O)N[C@@H](C)C(=O)N[C@H](C(=O)N[C@@H](CCCCN)C(=O)N[C@H](C(=O)N[C@H](C(=O)N[C@@H](CC(=O)O)C(=O)N[C@@H](CCCCN)C(=O)N[C@@H](CCCCN)C(=O)N[C@@H](CCCCN)C(=O)N[C@@H](CCCCN)C(=O)N[C@@H](CCCCN)C(=O)N[C@@H](CCCCN)C(N)=O)[C@@H](C)O)[C@@H](C)CC)[C@@H](C)O` has an AUC(0-inf) of 0.0442 µM·h (healthy humans; intravenous infusion, 1 mg single dose, 15 min infusion, geometric mean).
`CC(C)(O)c1ncc([S@](N)(=O)=NC(=O)Nc2c3c(cc4c2CCC4)CCC3)s1` has an AUC(0-inf) of 92000 ng·h/mL (healthy human fasted; oral, 100 mg single dose, CT formulation).

Repeated from above:
`C=CC(=O)Nc1cc(Nc2nccc(-c3cn(C4CC4)c4ccccc34)n2)c(OC)cc1N(C)CCNC` gave an AUC(0-inf) of 1120 ± 103 ng·h/mL (healthy Chinese male human; oral, 110 mg almonertinib, metabolite, [14C] single dose).
